Results gathered from unrelated publications.
Lines come from different studies, so protocols differ. “And” joins repeats or separate records; there may be more than shown. ± marks the error that the study gave.
CASP1: Caspase-1 (CASP1, Homo sapiens, UniProt P29466)
UniProt P29466, sequence (whole entry, looked up): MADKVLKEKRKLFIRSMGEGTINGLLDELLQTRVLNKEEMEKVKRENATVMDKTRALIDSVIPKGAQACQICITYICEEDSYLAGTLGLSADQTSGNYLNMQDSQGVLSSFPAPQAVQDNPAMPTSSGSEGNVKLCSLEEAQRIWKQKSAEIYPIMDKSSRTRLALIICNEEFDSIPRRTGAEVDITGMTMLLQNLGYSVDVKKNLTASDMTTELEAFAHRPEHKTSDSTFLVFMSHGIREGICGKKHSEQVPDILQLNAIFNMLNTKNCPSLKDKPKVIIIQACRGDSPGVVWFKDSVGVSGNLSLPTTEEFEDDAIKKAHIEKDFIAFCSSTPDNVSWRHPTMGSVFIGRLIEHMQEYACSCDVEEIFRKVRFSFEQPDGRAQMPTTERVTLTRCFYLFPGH
Rhomboid protease AarA: Rhomboid protease AarA (Providencia stuartii, UniProt P46116)
UniProt P46116, sequence (whole entry, looked up): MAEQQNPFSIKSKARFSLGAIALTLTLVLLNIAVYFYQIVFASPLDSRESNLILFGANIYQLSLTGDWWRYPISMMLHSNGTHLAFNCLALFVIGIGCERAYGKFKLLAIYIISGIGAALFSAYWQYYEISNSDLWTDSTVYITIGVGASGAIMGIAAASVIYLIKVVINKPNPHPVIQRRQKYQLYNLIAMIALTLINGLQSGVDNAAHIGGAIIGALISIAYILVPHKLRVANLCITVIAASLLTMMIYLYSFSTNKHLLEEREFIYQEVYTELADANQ
T1: ssRNA, hairpin with 1x1 G/G internal loops (Homo sapiens); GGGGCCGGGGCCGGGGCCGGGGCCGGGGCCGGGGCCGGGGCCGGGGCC
T2: ssRNA, single strand; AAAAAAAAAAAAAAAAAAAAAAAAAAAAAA
UniProt P46089, sequence (whole entry, looked up): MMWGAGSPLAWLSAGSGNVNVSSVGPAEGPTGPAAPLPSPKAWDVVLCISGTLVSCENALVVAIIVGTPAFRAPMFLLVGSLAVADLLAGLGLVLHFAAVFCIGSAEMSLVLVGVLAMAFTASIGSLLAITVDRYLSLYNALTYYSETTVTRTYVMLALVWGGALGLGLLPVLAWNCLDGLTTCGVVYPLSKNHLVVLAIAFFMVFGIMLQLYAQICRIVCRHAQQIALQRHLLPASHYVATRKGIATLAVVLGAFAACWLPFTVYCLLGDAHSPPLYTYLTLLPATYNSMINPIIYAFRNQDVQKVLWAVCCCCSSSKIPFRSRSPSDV
UniProt O75762, sequence (whole entry, unmodified, looked up): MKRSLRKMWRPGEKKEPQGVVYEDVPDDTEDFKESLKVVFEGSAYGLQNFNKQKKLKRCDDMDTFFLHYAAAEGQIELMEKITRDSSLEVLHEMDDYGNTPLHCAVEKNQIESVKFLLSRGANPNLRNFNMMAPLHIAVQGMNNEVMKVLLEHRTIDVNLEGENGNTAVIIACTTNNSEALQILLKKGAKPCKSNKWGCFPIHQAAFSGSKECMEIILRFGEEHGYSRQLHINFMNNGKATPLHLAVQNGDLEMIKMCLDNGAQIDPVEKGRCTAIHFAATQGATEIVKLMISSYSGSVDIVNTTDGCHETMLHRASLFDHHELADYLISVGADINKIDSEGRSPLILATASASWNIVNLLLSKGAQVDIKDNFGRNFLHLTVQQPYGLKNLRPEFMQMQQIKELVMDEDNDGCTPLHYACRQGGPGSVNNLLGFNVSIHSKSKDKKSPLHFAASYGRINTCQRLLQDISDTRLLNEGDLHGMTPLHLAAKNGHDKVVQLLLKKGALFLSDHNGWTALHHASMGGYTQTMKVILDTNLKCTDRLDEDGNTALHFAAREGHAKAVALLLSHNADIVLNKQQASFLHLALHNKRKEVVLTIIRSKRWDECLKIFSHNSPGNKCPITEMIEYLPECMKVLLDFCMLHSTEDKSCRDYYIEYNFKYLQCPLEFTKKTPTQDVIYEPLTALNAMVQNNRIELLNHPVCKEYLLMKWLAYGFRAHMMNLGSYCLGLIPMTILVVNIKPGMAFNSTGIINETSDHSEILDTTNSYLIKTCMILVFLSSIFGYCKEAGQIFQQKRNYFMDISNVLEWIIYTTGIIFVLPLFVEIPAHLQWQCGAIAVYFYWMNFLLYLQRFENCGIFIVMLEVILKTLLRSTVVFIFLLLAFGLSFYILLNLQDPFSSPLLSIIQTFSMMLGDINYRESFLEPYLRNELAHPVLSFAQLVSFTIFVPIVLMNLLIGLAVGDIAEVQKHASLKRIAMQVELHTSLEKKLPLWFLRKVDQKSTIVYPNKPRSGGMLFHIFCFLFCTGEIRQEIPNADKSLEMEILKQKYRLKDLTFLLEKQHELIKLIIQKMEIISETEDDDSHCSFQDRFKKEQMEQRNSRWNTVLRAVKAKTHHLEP
UniProt P22309, sequence (whole entry, looked up): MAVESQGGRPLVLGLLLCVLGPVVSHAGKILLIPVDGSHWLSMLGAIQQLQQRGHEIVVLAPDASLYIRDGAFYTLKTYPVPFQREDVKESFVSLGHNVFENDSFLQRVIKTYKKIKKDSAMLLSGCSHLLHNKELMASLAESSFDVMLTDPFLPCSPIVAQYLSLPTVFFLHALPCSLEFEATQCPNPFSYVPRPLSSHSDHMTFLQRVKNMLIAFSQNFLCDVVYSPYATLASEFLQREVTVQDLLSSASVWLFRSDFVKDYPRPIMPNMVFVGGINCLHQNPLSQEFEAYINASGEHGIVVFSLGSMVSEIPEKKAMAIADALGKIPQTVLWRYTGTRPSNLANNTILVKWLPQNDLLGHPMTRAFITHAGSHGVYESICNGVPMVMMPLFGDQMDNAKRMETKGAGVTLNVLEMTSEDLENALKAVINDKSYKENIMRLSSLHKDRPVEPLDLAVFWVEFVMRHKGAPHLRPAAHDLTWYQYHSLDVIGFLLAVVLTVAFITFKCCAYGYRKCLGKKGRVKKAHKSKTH
UniProt O75475, sequence (whole entry, looked up): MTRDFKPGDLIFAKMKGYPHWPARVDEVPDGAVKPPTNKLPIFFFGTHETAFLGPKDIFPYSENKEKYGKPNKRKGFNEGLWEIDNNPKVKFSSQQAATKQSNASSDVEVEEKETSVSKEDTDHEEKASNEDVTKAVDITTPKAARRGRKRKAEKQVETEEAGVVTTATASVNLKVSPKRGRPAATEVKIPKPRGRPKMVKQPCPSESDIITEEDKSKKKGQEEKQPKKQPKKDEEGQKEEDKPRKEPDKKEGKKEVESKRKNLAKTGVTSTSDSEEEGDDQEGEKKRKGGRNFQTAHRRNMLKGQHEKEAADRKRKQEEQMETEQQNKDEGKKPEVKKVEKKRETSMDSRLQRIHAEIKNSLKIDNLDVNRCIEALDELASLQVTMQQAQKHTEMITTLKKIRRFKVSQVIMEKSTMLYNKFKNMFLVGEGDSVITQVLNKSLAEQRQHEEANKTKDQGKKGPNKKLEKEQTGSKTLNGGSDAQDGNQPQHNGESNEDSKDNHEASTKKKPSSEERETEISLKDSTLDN
UniProt Q9HB29, sequence (whole entry, looked up): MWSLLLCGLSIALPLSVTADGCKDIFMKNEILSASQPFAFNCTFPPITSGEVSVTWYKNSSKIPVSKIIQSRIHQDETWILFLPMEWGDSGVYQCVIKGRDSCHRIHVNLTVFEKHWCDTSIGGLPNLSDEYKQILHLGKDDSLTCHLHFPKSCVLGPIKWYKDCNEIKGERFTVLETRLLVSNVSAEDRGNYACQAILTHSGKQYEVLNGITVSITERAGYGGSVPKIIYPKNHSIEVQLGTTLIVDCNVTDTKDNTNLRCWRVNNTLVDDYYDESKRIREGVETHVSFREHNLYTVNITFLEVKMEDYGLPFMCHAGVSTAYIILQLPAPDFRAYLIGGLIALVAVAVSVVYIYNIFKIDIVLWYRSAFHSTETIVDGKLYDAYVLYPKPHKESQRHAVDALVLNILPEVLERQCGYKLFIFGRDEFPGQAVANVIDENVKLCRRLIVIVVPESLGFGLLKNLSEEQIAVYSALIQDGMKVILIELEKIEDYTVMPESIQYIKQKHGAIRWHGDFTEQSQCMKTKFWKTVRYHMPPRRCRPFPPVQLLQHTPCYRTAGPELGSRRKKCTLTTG
UniProt Q5BJF2, sequence (whole entry, looked up): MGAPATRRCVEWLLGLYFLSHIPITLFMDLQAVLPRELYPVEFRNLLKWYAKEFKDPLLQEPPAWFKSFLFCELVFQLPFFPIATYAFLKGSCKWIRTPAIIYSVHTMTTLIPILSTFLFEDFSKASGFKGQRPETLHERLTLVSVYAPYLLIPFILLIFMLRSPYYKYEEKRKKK
UniProt P31641, sequence (whole entry, unmodified, looked up): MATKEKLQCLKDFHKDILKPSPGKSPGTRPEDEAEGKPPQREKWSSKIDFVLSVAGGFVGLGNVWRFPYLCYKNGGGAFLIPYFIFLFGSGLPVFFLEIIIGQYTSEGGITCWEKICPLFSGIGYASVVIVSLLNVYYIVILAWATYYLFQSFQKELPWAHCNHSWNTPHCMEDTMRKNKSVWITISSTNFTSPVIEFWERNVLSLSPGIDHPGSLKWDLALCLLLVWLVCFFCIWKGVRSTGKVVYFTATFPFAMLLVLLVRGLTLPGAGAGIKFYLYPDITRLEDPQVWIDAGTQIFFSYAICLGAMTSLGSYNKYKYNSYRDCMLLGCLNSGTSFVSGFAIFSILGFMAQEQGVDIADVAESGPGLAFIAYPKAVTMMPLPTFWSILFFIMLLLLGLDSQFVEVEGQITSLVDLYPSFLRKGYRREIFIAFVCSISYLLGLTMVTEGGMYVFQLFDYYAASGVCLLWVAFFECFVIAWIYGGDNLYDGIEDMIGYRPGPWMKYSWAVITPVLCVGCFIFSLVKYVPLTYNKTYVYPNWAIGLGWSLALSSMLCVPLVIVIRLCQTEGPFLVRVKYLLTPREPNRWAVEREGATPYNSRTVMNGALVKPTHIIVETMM
UniProt P08191, sequence (whole entry, unmodified, looked up): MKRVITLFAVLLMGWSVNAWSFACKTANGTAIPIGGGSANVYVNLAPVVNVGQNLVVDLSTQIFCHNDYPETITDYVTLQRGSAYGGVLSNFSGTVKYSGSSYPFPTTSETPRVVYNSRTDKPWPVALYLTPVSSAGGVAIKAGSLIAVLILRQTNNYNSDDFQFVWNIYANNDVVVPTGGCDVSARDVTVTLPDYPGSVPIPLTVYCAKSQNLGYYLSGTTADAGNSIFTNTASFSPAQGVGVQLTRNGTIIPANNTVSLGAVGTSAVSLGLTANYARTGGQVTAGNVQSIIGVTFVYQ

SMILES = O=C(NC[C@@H](Cc1ccc(F)cc1)N1CCC(O)(C(F)(F)F)CC1)C1(c2ccc(Cl)cc2)CCCC1; target = TRPA1 (Homo sapiens, UniProt O75762, M912L); test = calcium influx, agonist; scale = reference: M912L mutant over wild type; measurement = EC50 fold change; value = 3.2
SMILES = CC(=O)N[C@@H](CC(C)C)C(=O)N[C@@H](CCC(N)=O)C(=O)N[C@@H](CCC(=O)O)C(=O)N[C@@H](CC(=O)O)C(=O)COC(=O)c1c(C)cccc1C; target = CASP1; test = inhibitor; conditions = recombinant enzyme; measurement = kobs/[I]; value = 26600 M⁻¹ s⁻¹
SMILES = CCCNC(=O)CN1CCCN(C(=O)CN2CCCN(Cc3cccc4cnccc34)CC2)CC1; target = T1, ssRNA, hairpin with 1x1 G/G internal loops (Homo sapiens); test = BLI; measurement = Kd; value = 38 µM
SMILES = CC(C=CC=C(C)C=CC1=C(C)CCCC1(C)C)=CC=O; target = Rhodopsin (RHO, Homo sapiens, UniProt P08100, P23H); test = immunostaining, item: opsin; test system = COS-7 transfected; conditions = 0.10 µM, unit not given; scale = reference: surface over total stained cells; measurement = plasma membrane localization; value = 0
SMILES = CN(C)CCCSC(=S)N1CCN(C(=O)/C=C/c2coc3ccccc3c2=O)CC1; target = Nucleoprotein (N, Tomato spotted wilt virus, UniProt P25999); test = binding, microscale thermophoresis; conditions = 0.1221 µM; scale = dose series; measurement = normalised MST response; value = -0.0148
SMILES = CC(=O)N[C@@H](CC(C)C)C(=O)N[C@@H](CCC(=O)O)C(=O)N[C@@H](Cc1c[nH]cn1)C(=O)N[C@@H](CC(=O)O)C(=O)COC(=O)c1c(C)cccc1C; target = CASP1; test = enzyme activity, inhibitor; measurement = kinact/KI; value = 750000 M⁻¹ s⁻¹
SMILES = C[Si](C)(C)C[C@H](CN)CC(=O)O; target = Interleukin-1 receptor type 1 (Il1r1, Mus musculus, UniProt P13504); test = binding, radioligand binding; conditions = 250 µM, added: iodinated interleukin-1 beta; measurement = inhibition; value = 8%
SMILES = O=C(OCc1ccccc1)[C@@H]1CC(=O)N1C(=O)NCc1ccccc1; target = Rhomboid protease AarA; test = enzyme activity, inhibitor, fluorogenic peptide substrate; measurement = IC50; value = inactive
SMILES = CN(C)c1ccc(C2=C/C(=C/C=C/c3sc4ccccc4[n+]3C)c3ccccc3O2)cc1; target = T2, ssRNA, single strand; test = fluorescence turn-on; measurement = binding; value = no binding
SMILES = N#Cc1ccc(S(=O)(=O)N2C(=O)CC2c2ccccc2)cc1 (centres unmarked); target = Rhomboid protease AarA; test = enzyme activity, inhibitor, fluorogenic peptide substrate; measurement = IC50; value = inactive
SMILES = COc1cc(C2C(NC(=O)c3ccc(NC(=O)OC(C)(C)C)cc3)(C(=O)O)C(c3ccc(OC(=O)c4cccs4)c(OC)c3)C2(NC(=O)c2ccc(NC(=O)OC(C)(C)C)cc2)C(=O)O)ccc1OC(=O)c1cccs1 (centres unmarked); target = GLP1R (Homo sapiens, UniProt P43220, Y148A); test = cAMP accumulation, agonist; conditions = receptor mutant; scale = reference: wild type; measurement = Emax; value = 35.3 ± 4.82%
SMILES = [N-]=[N+]=N[C@]1(COP(=O)(O)OP(=O)(O)OP(=O)(O)O)O[C@@H](n2ccc(N)nc2=O)[C@@H](F)[C@@H]1O; target = Gag-Pol polyprotein, reverse transcriptase (gag-pol, Human immunodeficiency virus type 1 group M subtype B, UniProt P04585); test = nucleotide incorporation, substrate; test system = HIV-1; conditions = added: RNA template; measurement = Vmax; value = 0.42 product fraction
SMILES = CCCCCCCO[C@H]1O[C@H](CO)[C@@H](O)[C@H](O)[C@@H]1O; target = Type 1 fimbrin D-mannose specific adhesin, lectin domain (fimH, Escherichia coli K-12, UniProt P08191); test = binding, isothermal titration calorimetry; conditions = 25 °C, global fit of two titrations; measurement = ΔG; value = -10.3 kcal/mol
SMILES = O=C(O)C1OC(Oc2ccc3c(=O)cc(-c4ccccc4)oc3c2)C(O)C(O)C1O (centres unmarked); target = UGT1A1 (Homo sapiens, UniProt P22309); test = glucuronidation, substrate; test system = Supersomes; measurement = Vmax; value = 1.23 ± 0.11 nmol/mg/min
SMILES = CC[C@H](C)[C@H](NC(=O)[C@@H]1CCCN1C(=O)[C@H](CCCNC(=N)N)NC(=O)[C@@H]1CCCN1C(=O)[C@@H]1CCCN1C(=O)[C@@H](NC(=O)[C@@H]1CCCN1C(=O)[C@H](CCCNC(=N)N)NC(=O)[C@@H]1CCCN1C(=O)[C@H](CC(C)C)NC(=O)[C@H](Cc1ccc(O)cc1)NC(=O)[C@H](CO)NC(=O)CNC(=O)[C@H](CCCCN)NC(=O)[C@H](CC(=O)O)NC(=O)[C@@H](NC(=O)[C@H](CCCCN)NC(=O)c1ccc2c(c1)C(=O)OC21c2ccc(O)cc2Oc2cc(O)ccc21)C(C)C)[C@@H](C)O)C(=O)N[C@@H](Cc1ccc(O)cc1)C(=O)N[C@@H](CC(N)=O)C(=O)N[C@@H](CCCNC(=N)N)C(=O)N[C@@H](CC(N)=O)C(=O)NCC(=O)N1CCC[C@H]1C(=O)N[C@@H](CCCNC(=N)N)C(=O)N[C@@H](CCC(N)=O)C(=O)N[C@@H](CC1CCCCC1)C(=O)N[C@@H](CC(=O)O)C(=O)N[C@@H](CC(C)C)C(=O)N[C@@H](Cc1ccccc1)C(=O)O; target = Beta sliding clamp (Escherichia coli, UniProt P0A988); test = binding, ITC; conditions = 30 °C; measurement = ΔG; value = -9.2 kcal/mol
SMILES = O=C1CC(c2ccccc2)N1S(=O)(=O)C1CCCC1 (centres unmarked); target = Rhomboid protease AarA; test = enzyme activity, inhibitor, fluorogenic peptide substrate; measurement = IC50; value = inactive
SMILES = CC(C)[C@@H]1NC(=O)[C@H](Cc2ccccc2)NC(=O)CSC[C@@H](C(N)=O)NC(=O)[C@H](CCC(=O)O)NC(=O)[C@H](CO)NC(=O)[C@H](Cc2c[nH]c3cccc(Cl)c23)NC(=O)[C@H](C2CCCCC2)NC(=O)[C@H](C(C)C)NC(=O)[C@H](Cc2ccc(O)cc2)NC(=O)[C@H](CC(=O)O)NC(=O)[C@H](Cc2c[nH]c3ccccc23)NC(=O)[C@H](Cc2ccc(N)nc2)NC(=O)[C@H](Cc2c[nH]c3ccc(Cl)cc23)NC(=O)[C@H](CCC(=O)O)NC1=O; target = Interleukin-1 receptor-like 2 (IL1RL2, Homo sapiens, UniProt Q9HB29); test = reporter gene (SEAP), inhibitor, HEK-Blue IL-36R reporter; test system = HEK-Blue IL-36R cells; conditions = 33.33 µM, 6 h, added: IL-36γ 3 ng/mL; measurement = remaining activity; value = 34.1%
SMILES = CC[C@H](C)[C@H](NC(=O)[C@H](CCC(=O)O)NC(=O)[C@H](Cc1ccc(I)cc1)NC(C)=O)C(=O)N[C@@H](CC(=O)O)C(=O)COC(=O)c1c(C)cccc1C; target = CASP1; test = enzyme activity, inhibitor; measurement = kinact/KI; value = 252000 M⁻¹ s⁻¹
SMILES = Cc1cc(C=C2SC(=O)N(Cc3cccc([N+](=O)[O-])c3)C2=O)c(C)n1-c1ccc(Br)c(Cl)c1; target = Heat shock protein HSP 90-alpha, N-terminal domain (HSP90AA1, Homo sapiens, UniProt P07900); test = SPR, two-state model; test system = N-terminal domain; measurement = koff; value = 0.000923 ± 0.000754 s⁻¹
SMILES = CCCCOc1ccc(C(=O)OCC[N+]2(C)CC=CCC2)cc1 (centres unmarked); target = CHRM4 (Homo sapiens, UniProt P08173); test system = membranes; conditions = 100 µM, 15 h, no carbachol; scale = reference: control; measurement = basal binding; value = 0.85 ± 0.03 fold
SMILES = CCCCCCCC/C=C\CCCCCCCC(=O)NCCO; target = Trpv1 (Mus musculus, UniProt Q704Y3, Y555F); test = ion current, agonist, whole-cell patch clamp; conditions = Y555F; scale = reference: 3 mM 2-APB; measurement = maximal open probability; value = 0.39 ± 0.09
SMILES = CCCCCC(O)/C=C/C=O (centres unmarked); target = PC4 and SFRS1-interacting protein (Homo sapiens, UniProt O75475); test = acylphosphate-ATP probe SILAC-ABPP, item: PSIP1; test system = ZAK-transfected HEK293T; conditions = 100 µM, added: acylphosphate-ATP probe; scale = reference: DMSO over compound-treated; measurement = probe labelling ratio; value = 0.64
SMILES = OC1Cc2ccccc2CC1N1CCC(c2ccc(Br)cc2)CC1 (racemic); target = Vesicular acetylcholine transporter (Rattus norvegicus, UniProt Q62666); scale = reference: Ki sigma1 over Ki VAChT; measurement = selectivity ratio; value = 0.55
SMILES = N=C(N)NCCS(=O)(=O)O; target = SLC6A6 (Homo sapiens, UniProt P31641, Y138A); test = binding, microscale thermophoresis; conditions = 15.6 µM, room temperature, added: 50 nM labelled protein; scale = higher = more binding; measurement = normalised MST signal; value = -0.0358
SMILES = CC(C)Oc1cc(Cl)ccc1CNc1cc(-c2ccccc2)nc2ncnn12; target = GPR3 (Homo sapiens, UniProt P46089); test = cAMP reporter; test system = human cells; conditions = 30 µM; scale = higher is more cAMP; measurement = cAMP luminescence; value = 2980 a.u. and 1460 a.u. and 1600 a.u. and 7260 a.u. and 12400 a.u. and 1670 a.u. and 4100 a.u.
SMILES = CC(C)C[C@H](NC(=O)[C@H](Cc1ccc(O)cc1)NC(=O)[C@H](CC(N)=O)NC(=O)[C@H](CO)NC(=O)CNC(=O)[C@H](Cc1ccc(O)cc1)NC(=O)[C@H](CC(=O)O)NC(=O)CNC(=O)[C@H](Cc1ccc(O)cc1)NC(=O)[C@H](Cc1ccccc1)NC(=O)[C@@H]1CCCN1C(=O)[C@H](Cc1ccccc1)NC(=O)[C@H](CCC(=O)O)NC(=O)[C@H](CCCNC(=N)N)NC(=O)[C@H](Cc1c[nH]cn1)NC(=O)[C@H](CO)NC(=O)[C@H](Cc1c[nH]cn1)NC(=O)[C@H](Cc1c[nH]cn1)NC(=O)[C@H](CCCCN)NC(=O)[C@H](CCC(=O)O)NC(=O)[C@H](Cc1c[nH]cn1)NC(=O)[C@H](Cc1ccccc1)NC(=O)[C@H](CCCCN)NC(=O)[C@H](CCCNC(=N)N)NC(=O)[C@H](CCCNC(=N)N)NC(=O)[C@H](Cc1ccc(O)cc1)NC(=O)CNC(=O)[C@H](Cc1c[nH]cn1)NC(=O)[C@H](Cc1c[nH]cn1)NC(=O)[C@H](CCCNC(=N)N)NC(=O)[C@H](CCCCN)NC(=O)[C@H](CCC(=O)O)NC(=O)[C@H](Cc1c[nH]cn1)NC(=O)[C@H](COP(=O)(O)O)NC(=O)[C@@H](N)CC(=O)O)C(=O)N[C@@H](Cc1ccc(O)cc1)C(=O)N[C@@H](CC(=O)O)C(=O)N[C@@H](CC(N)=O)C(=O)O; target = TMEM97 (Homo sapiens, UniProt Q5BJF2); test = SPR; conditions = concentration not given, 25 °C; scale = reference: Rmax; measurement = binding response; value = 24%
